Measurements gathered from unrelated publications.
Every numbered part comes from another study and shows a few of its results, in no order. Substitutions count along the parent as printed.

Block 1
Target: Ras GTPase-activating protein-binding protein 1, C-terminal RGG region (G3BP1, Homo sapiens, UniProt Q13283)
Chain of UniProt Q13283 (whole entry, looked up): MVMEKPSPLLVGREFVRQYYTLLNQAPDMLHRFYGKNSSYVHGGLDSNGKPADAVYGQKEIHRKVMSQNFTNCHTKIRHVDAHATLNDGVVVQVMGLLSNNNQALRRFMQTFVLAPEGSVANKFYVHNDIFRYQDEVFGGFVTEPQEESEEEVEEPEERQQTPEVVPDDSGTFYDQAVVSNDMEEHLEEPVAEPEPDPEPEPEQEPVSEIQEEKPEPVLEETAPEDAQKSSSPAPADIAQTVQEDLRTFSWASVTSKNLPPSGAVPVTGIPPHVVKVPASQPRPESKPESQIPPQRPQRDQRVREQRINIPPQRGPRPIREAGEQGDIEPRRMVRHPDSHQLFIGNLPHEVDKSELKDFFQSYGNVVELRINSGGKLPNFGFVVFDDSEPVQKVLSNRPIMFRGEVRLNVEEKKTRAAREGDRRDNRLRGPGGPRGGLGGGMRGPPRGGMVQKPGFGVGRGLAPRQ
Method: RNA Bind-n-Seq
Molecule type: RNA
Medium: in vitro
Tested at: 1 µM
Setting: whole 134-nt RNA, ends assumed
With: 150 mM KCl
Reference: input library
Reading: higher = stronger binding
Constant ends, left off below: GGGAGUUCUACAGUCCGACGAUC … UGGAAUUCUCGGGUGUCAAGG
Sequence | log2 enrichment
UUGUUUAUUCUGUGUCUUUUGCCUCCUUUCCUACAGAUGUCCGGCAGGAUAAUGCUGCUGGCAGAGCUGGCUCCAGUAGCCUUACACAGG | 0.233
UUAGAUGAGGACCUUGAGAUUGAAUUGGUUGAGGAAGAGCCUCCAUUCCUGAGAGGGCACACUAAGCAAAGCAUGGACAUGAGCCCCAUU | -0.888
GCAGGAAGUAAAAACAAAUGGAAAUGCUUCGGAUAGUGGCAGGGGUGGGGGUUGCUAAGGAAAGGGUGGGAUAAAAGUGGGUAAAGAGUU | 1.45
GCAGGAAGUAAAAAGAAAUGGAAAUGCUUCGGAUAGUGGCAGGGGUGGGGGUUGCUAAGGAAAGGGUGGGAUGGGAGUGGGUAAAGAGUU | 2.01
AAACAGCUCUAUAACAAAAUACAAUGCGGGUUCAUGUUAAUGUUUUUAUCUCUAACAGGUUGGUUUCAGUGCUGAUGAAACUUGGGACUC | -1.29
UCAAGUCCUGUGCUACACAUCGUAUGUACCGAAUCGGAAAAAGGAAAGGAAAGGAAAGUAUUAUGUUACGCCGUUCGGAUCUGCACUUCC | -1.82
UCCUGUGCUACACAUCGUAUGUACCGAAUCGGGGUUUGGGGAAAGGGGUUUUUUUGGGGAAAGUAUUAUGUUACGCCGUUCGGAUCUGCA | 2.76
AGUCCUGUGCUACACAUCGUAUGUACCGAAUCGGUUUUUUUGGUUUGGAAAAAAAGGAAAGUAUUAUGUUACGCCGUUCGGAUCUGCACU | -2.29
UAACUUUAGAGGAGGAUCUGAUGGAUAUGGGAGUGGACGUGGAUUUGGGGAUGGCUAUAAUGGGUAUGGAGGAGGACCUGGAGGUGGCAA | 0.157

Block 2
Target: ABI1, truncated, D143A, DHFR fusion (Arabidopsis thaliana)
Method: DHFR PCA, deep sequencing
Medium: yeast
Setting: methotrexate growth selection, single substitutions
With: (+)-ABA 200 µM
Reference: wild-type fitted maximum
Reading: higher = stronger binding
Starting sequence: PYL1, truncated, DHFR fusion (Arabidopsis thaliana); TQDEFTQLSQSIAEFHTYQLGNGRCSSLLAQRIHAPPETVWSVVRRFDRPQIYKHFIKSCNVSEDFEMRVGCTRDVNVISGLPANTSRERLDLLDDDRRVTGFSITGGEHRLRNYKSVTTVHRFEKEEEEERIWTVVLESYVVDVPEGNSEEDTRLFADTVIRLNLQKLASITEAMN; partner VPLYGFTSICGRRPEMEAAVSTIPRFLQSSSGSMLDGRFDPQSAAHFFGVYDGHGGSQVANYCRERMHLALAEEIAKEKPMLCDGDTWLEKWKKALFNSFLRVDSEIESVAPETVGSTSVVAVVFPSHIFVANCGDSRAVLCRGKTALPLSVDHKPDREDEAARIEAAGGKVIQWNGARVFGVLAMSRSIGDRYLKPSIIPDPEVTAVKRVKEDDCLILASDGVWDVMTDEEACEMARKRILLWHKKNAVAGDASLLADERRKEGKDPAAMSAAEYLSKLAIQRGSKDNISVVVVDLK
Variant | relative binding score [%]
E129R | 100
E128S | 106
S27W | 38.8
T173I | 90.6
P83S | 72.6
S26P | 22.9
F47W | 83
I57R | 2.35
T154E | 3.95
F157S | -0.19
V145M | 77
G23H | 95.1
S80F | 66.7
D75F | 103
E130D | 110
C60I | 84.9

Block 3
Target: PABPC1L2, full length, GST fusion (mouse, UniProt A0ABA7IW68)
Method: RNAcompete
Molecule type: RNA
Medium: in vitro
Tested at: 20 nM
Setting: 7-mer, probes averaged, single round
Reference: mean of 7-mers
Reading: higher = stronger binding
Residues (chain): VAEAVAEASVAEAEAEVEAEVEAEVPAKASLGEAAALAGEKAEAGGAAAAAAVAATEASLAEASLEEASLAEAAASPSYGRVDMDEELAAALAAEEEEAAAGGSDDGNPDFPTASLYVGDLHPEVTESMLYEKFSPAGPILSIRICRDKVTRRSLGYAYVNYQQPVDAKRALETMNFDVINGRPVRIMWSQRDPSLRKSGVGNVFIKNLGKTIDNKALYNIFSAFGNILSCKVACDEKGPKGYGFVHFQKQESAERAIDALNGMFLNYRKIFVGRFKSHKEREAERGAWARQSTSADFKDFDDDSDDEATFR
Sequence | 7-mer Z-score
GGAAGUG | 0.0497
UUUGGGA | -0.104
GAAGAAU | 0.0968
CACUAAG | -0.05
GCGGUAC | 0.0261
CGAGUGC | -0.168
GCCAGUA | -0.159
UCUUCUA | -0.329
GACCGAG | 0.0334
GCCCACC | -0.445
AAACAGG | 3.78
GCUACCG | 0.017
AUUUCUA | -0.342
GGAUCCU | -0.0554
CGGGGGC | 0.229
ACUCAGC | -0.121
CCCCACG | -0.436
CAGAUUC | -0.273
CAAGAGA | 0.274
CUUAAUG | -0.298
ACUGGCA | 0.0823
CCGCGCU | -0.347
CCGCUGC | -0.412
AGGAGAU | 0.0623
CGUUUAU | -0.364

Block 4
Target: CCNA2, cyclin fold, Cln2 fusion (human)
Method: yeast growth competition, sequencing
Medium: yeast
Setting: strong parent motif
Reference: not given
Reading: higher = stronger binding
Starting sequence: GMNC docking peptide (human); KNAKRNLSSEFAN
Variant | normalised enrichment score
A3K | 0.993
S9W | 5.28
F11Y | 2.82
F11M | 1.79
A3Y | 4.06
A12V | 4.37
A12K | 4.4
N6R | 4.33
K4L | 1.87
E10N | 0.986
A12E | 5.62
N6V | 0.658
K4A | 4.11
N2S | 5.86
F11S | 0.486
L7T | 0.368
N2L | 4.36
K4M | 2.26
N2Y | 3.57
A3H | 1.58
L7W | 0.427
R5V | 0.129
N6F | 0.215
L7F | 0.483
A12P | 2.37

Some of these lines once more (block 4):
Variant | normalised enrichment score
E10N | 0.986
L7T | 0.368
N6F | 0.215
A3H | 1.58
